Measured values of several laboratories.
Protocols differ between the studies behind these lines. Numbers after ± are the reported error. Converted amounts (≈) assume the structure as drawn.
Cell line: HeLa

| Compound | assay | test system | setting | scale | quantity | value |
| --- | --- | --- | --- | --- | --- | --- |
| CC(C)(C)c1cc2c(O)c(c1)Cc1cc(C(C)(C)C)cc(c1OCC(=O)NCc1ccncc1)Cc1cc(C(C)(C)C)cc(c1O)Cc1cc(C(C)(C)C)cc(c1OCC(=O)NCc1ccncc1)COC2 | cell growth or viability, MTT | – | 15 µM, 72 h | – | inhibition | 64% |
| S=c1n(-c2ccccc2)c2c3ccccc3nc3[n+]2[n]1[Ir-3]12([S]3)([c]3cccc4ccc5ccc[n+]1c5c34)[c]1cccc3ccc4ccc[n+]2c4c13 | – | – | 4.5 nM, light irradiation | – | apoptotic cells | 56.2% |
| O=C(/C=C/c1ccccc1)Oc1ccc2c(c1)O/C(=C\C=C\c1ccccc1)C2=O | Western blot | – | 0.3 to 10 µM, 24 h | – | p62 level | increased |
| O=S([O-])c1ccccc1N=Cc1ccccc1[O-].[Cu+2].c1c[nH]cn1 | protein expression, Western blot | – | 1, 2 and 3 µM, 24 h | – | cleaved caspase-9 level | increased |
| COc1ccc(CCC(=O)Nc2nc3ccc(Cl)cc3s2)cc1OC | shotgun lipidomics | – | 10 µM, 18 h | baseline: DMSO | cholesteryl ester reduction | ~40% |
| CC(=O)N[C@H](CCCNC(=N)N)C(=O)N[C@H](CCCCN)C(=O)N[C@H](Cc1ccc(O)cc1)C(=O)N[C@H](CS)C(N)=O | Annexin V/PI flow cytometry | – | 50 nM, 24 h | – | late apoptotic cells | 17.8% |
| COc1c(Cc2ccccc2O)c(O)c2c(c1Cc1ccccc1O)O[C@H](c1ccccc1)CC2=O | MTT | – | concentration not given, 72 h | – | cytotoxicity | inactive |
| O=c1c(/C=N/NC(=S)N/N=C/c2cc(Cl)ccc2O)coc2ccccc12 | western blot, refers to: phospho-ERK1/2 | – | 50 µM, 24 h | – | reduction in ERK1/2 phosphorylation | ~75% |
| CC(C)[C@@H]1NC(=O)[C@H](Cc2ccc(O)cc2)NC(=O)[C@H](CCCNC(=N)N)NC(=O)[C@H](CCCNC(=N)N)NC(=O)[C@@H]2CCCN2C(=O)[C@H]2CCCN2C(=O)[C@@H](CCCNC(=N)N)NC(=O)[C@H](Cc2ccc3ccccc3c2)NC(=O)[C@H](Cc2ccccc2)NC(=O)[C@H](CC(N)=O)NC1=O | flow cytometry | NF-labelled via miniPEG-Lys at Asn | 5 µM, 2 h | baseline: CPP9 cyclo(fΦRrRrQ) as 100% | cytosolic entry efficiency | 34% |
| N=C(N)NCCC[C@@H]1NC(=O)[C@H](CCCCN)NC(=O)[C@@H](Cc2ccc(O)cc2)NC(=O)[C@H](CC(=O)O)NC(=O)CNC1=O | cell growth or viability, MTT | – | 48 h | – | GI50 | 79 µM |
| NC(=S)N/N=C/c1cc(Cl)ccc1O | DCFDA flow cytometry | – | 0.1 µM, 24 h | baseline: untreated cells | reduction in H2O2 level | ~15% |
| CC1(C)CC2C3=CCC4C5(C)CCC(O)C(C)(CO)C5CCC4(C)C3(C)CC(O)C2(CO)C(O)C1O (stereo not shown) | CCK-8 | – | up to 80 µM | – | growth inhibition | inactive |
| Cc1ccc2oc(=O)c(-c3nc4cnccc4[nH]3)cc2c1 | RT-qPCR and immunoblot, refers to: c-Myc, N-Myc and CCND1 | – | 1 µM | – | expression | decreased |
| O=C(Cc1ccc(-c2ccc(OCCN3CCOCC3)cc2)cn1)NCc1ccccc1O | cell growth or viability, CCK-8 | – | 48 h | – | IC50 | 2.1 µM |
| CC(C)(C)c1cc2c(O)c(c1)Cc1cc(C(C)(C)C)cc(c1OCC(=O)Nc1cccc3ncccc13)Cc1cc(C(C)(C)C)cc(c1O)Cc1cc(C(C)(C)C)cc(c1OCC(=O)Nc1cccc3ncccc13)COC2 | cell growth or viability, MTT | – | 15 µM, 72 h | – | inhibition | 18% |
| CC1=[N+]2N=C(c3ccccc3)[O][Pd-2]2([Cl])[O+]=C2Oc3ccccc3C=C21 (stereo not shown) | cytotoxicity, MTT | – | 24 h | baseline: WI-38 over HeLa IC50 | selectivity index | 5.31 |
| Clc1ccc(C=[N+]2N=C(Nc3ccccc3)[S][Pt-]2([Cl])[Cl])s1 | altered cell morphology, microscopy | – | confluent cultures | – | minimal cytotoxic concentration | 100 µM |
| CO.Cc1ccc2c(Cl)cc(Cl)c([O-])c2n1.Cc1ccc2c(Cl)cc(Cl)c([O-])c2n1.[Co+2].c1ccc2nc3c4cccnc4c4ncccc4c3nc2c1 | – | – | 0.80 nM, 24 h | – | mitochondrial membrane potential | decreased |
| COc1cc([C@@H]2c3cc4c(cc3[C@@H](OCc3cc(-c5ccc(C#N)cc5)no3)[C@H]3COC(=O)C23)OCO4)cc(OC)c1OC (stereo partly shown) | cell growth or viability, SRB | – | 48 h | – | GI50 | 3.64 µM |

| Compound | assay | test system | setting | scale | quantity | value |
| --- | --- | --- | --- | --- | --- | --- |
| CC(=O)N[C@@H](CCCCN)C(=O)N[C@@H](CCCCN)C(=O)N[C@@H](CCCCN)C(=O)N[C@@H](CCCCN)C(=O)N[C@@H](CCCCN)C(=O)N[C@@H](CCCCN)C(=O)N[C@@H](CCCCN)C(=O)N[C@@H](CCCCN)C(=O)N[C@@H](CCCCN)C(=O)N[C@@H](CCCCN)C(=O)N[C@@H](CCC(N)=O)C(=O)N[C@@H](Cc1c[nH]c2ccccc12)C(=O)N[C@@H](CCC(N)=O)C(=O)N[C@@H](Cc1c[nH]c2ccccc12)C(=O)N[C@@H](CCC(N)=O)C(=O)N[C@@H](Cc1c[nH]c2ccccc12)C(=O)N[C@@H](CCC(N)=O)C(=O)N[C@@H](Cc1c[nH]c2ccccc12)C(=O)N[C@@H](CCC(N)=O)C(=O)N[C@@H](Cc1c[nH]c2ccccc12)C(=O)N[C@@H](CCC(N)=O)C(=O)N[C@@H](Cc1c[nH]c2ccccc12)C(=O)N[C@@H](CCC(=O)O)C(=O)N[C@@H](CCC(=O)O)C(=O)N[C@@H](CCC(=O)O)C(N)=O | – | FITC co-assembly | 20 µM, endocytosis inhibition, with: methyl-β-cyclodextrin 5 µM pre-incubation | – | cellular uptake | no inhibition |
| C[C@@H]1O[C@H]2O[C@@H]3C4(O)C(=O)c5cccc(O)c5C(=O)C4(O)O[C@]3(C)[C@]21O (stereo partly shown) | cell growth or viability, MTT | – | 48 h | – | EC50 | 30.5 µg/mL (≈ 83.8 µM) |
| O=[N+]([O-])c1ccc(/C=N/NC(=S)Nc2ccccc2)s1 | altered cell morphology, microscopy | – | confluent cultures | – | cytotoxic concentration | ≥ 20 µM |
| CC(C)(C)c1cc2c(O)c(c1)Cc1cc(C(C)(C)C)cc(c1OCC(=O)NCc1ccccn1)Cc1cc(C(C)(C)C)cc(c1O)Cc1cc(C(C)(C)C)cc(c1OCC(=O)NCc1ccccn1)COC2 | cell growth or viability, MTT | – | 15 µM, 72 h | – | inhibition | 50% |
| COc1cc(C(=O)c2[nH]c(N)nc2-c2cccs2)cc(OC)c1OC | refers to: phospho-histone H3 | – | 75 nM, 12 h | – | mitotic cells | 13 ± 0.3% |
| [Cl][Pd-2]1([Cl])[N+](=Cc2ccc[nH]2)Cc2cccc[n+]21 | MTT | – | 100 µg/mL, 24 h | – | viability reduction | > 80% |
| [Cl][Pd-]1([Cl])[S]C(Nc2ccccc2)=N[N+]1=Cc1ccc(-c2ccccc2)s1 | altered cell morphology, microscopy | – | confluent cultures | – | minimal cytotoxic concentration | 100 µM |
| Cc1cc(/C=C2\CN(C(C)C)C/C(=C\c3cc(C)c(O)c(C)c3)C2=O)cc(C)c1O | annexin V/PI flow cytometry | – | 10 µM, 24 h | – | apoptotic cells | 26 ± 2.69% |
| COc1cc2c(=O)c(-c3ccc4c(c3)OCO4)coc2c2c1OC(C)(C)C=C2 | annexin V/PI flow cytometry | – | 10 µM, 48 h | – | apoptotic cells | 43.8% |
| CC(C)CCOc1cc(C[n+]2cn(CCC(C)C)c3ccccc32)c(OCCC(C)C)c2ccccc12 | AP1 reporter | – | 5 µM | – | reporter activity | decreased |
| O=c1c(Br)c2oc3c(CN(Cc4ccccn4)Cc4cnccn4)c(O)ccc3nc-2c2ccccc12 | fluorescence microscopy | – | 5 µM, 5 min, with: 25 µM Zn2+ pyrithione | – | fluorescence increase | ~6 fold |
| CNC(=O)c1c(C)oc2cc(Oc3ncnc4cc(OC)c(OCCCCCCC(=O)NO)cc34)ccc12 | annexin V/7-AAD flow cytometry | – | 1.5 µM, 48 h | – | apoptotic cells | 18.3% |
| CC(C)(C)c1cc2c(O)c(c1)Cc1cc(C(C)(C)C)cc(c1OCC(=O)Nc1cncc3ccccc13)Cc1cc(C(C)(C)C)cc(c1O)Cc1cc(C(C)(C)C)cc(c1OCC(=O)Nc1cncc3ccccc13)COC2 | cell growth, MTT | – | 15 µM | – | inhibition | 75 to 94% |
| [Cl][Pd-]1([Cl])[S]C(Nc2ccccc2)=N[N+]1=Cc1cccs1 | altered cell morphology, microscopy | – | confluent cultures | – | minimal cytotoxic concentration | > 100 µM |
| CNc1ccc(CNC(=O)Cc2ccc(-c3ccc(OCCN4CCOCC4)cc3)cn2)cc1 | cell growth or viability, CCK-8 | – | 48 h | – | IC50 | 0.15 µM |
| COc1ccc(-c2cc(COC3c4cc5c(cc4C(c4cc(OC)c(OC)c(OC)c4)C4C(=O)OCC34)OCO5)on2)cc1 (stereo not shown) | cell growth or viability, SRB | – | 48 h | – | GI50 | 0.32 µM |
| CC(C)(C)c1ccc(C(=O)Oc2ccc3c(-c4ccccc4C(=O)O)c4ccc(=O)cc-4oc3c2)cc1 | HPLC-MS/MS | – | 50 µM, 24 h | – | mRNA m6A level | increased |
| C=C1C(=O)OC2C=C(C)CCC=C(C(=O)OC(C)C(C)(O)C(=O)OC3C(OC(C)=O)C(C(=O)OC)=CCCC(C)=CC4OC(=O)C(=C)C43)CC(OC(=O)C(C)=CC)C12 (stereo not shown) | PI staining flow cytometry | – | 3 µM, 24 h | – | G2/M phase cells | 22.9% |

For quick reference, copied from above:
| Compound | assay | test system | setting | scale | quantity | value |
| --- | --- | --- | --- | --- | --- | --- |
| Clc1ccc(C=[N+]2N=C(Nc3ccccc3)[S][Pt-]2([Cl])[Cl])s1 | altered cell morphology, microscopy | – | confluent cultures | – | minimal cytotoxic concentration | 100 µM |
| CO.Cc1ccc2c(Cl)cc(Cl)c([O-])c2n1.Cc1ccc2c(Cl)cc(Cl)c([O-])c2n1.[Co+2].c1ccc2nc3c4cccnc4c4ncccc4c3nc2c1 | – | – | 0.80 nM, 24 h | – | mitochondrial membrane potential | decreased |
| COc1cc([C@@H]2c3cc4c(cc3[C@@H](OCc3cc(-c5ccc(C#N)cc5)no3)[C@H]3COC(=O)C23)OCO4)cc(OC)c1OC (stereo partly shown) | cell growth or viability, SRB | – | 48 h | – | GI50 | 3.64 µM |
